Experimental data collected from several papers.
± marks the error that the study gave.
GRPR: Gastrin-releasing peptide receptor (GRPR, Homo sapiens, UniProt P30550)
Sequence of UniProt P30550 (whole entry, looked up): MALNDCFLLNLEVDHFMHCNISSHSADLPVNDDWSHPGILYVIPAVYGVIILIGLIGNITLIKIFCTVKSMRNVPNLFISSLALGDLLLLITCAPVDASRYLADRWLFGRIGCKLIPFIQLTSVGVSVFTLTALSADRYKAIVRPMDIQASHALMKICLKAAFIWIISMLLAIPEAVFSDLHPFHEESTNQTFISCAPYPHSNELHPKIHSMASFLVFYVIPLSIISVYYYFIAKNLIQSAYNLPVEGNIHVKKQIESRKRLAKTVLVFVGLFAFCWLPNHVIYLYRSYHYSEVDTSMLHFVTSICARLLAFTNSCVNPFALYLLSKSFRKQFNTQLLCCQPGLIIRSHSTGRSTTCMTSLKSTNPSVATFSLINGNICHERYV
Proteasome component C5/PSMB5: Proteasome component C5/PSMB5 (Homo sapiens, UniProt P20618+P28074)
Sequence of UniProt P28074 (whole entry, looked up): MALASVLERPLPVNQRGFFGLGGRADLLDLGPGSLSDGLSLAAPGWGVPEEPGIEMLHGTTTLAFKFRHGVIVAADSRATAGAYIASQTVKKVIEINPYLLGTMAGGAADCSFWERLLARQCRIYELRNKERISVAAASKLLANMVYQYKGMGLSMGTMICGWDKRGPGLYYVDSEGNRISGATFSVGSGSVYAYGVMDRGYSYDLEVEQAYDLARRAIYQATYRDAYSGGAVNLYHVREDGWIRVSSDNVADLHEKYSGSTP
Sequence of UniProt P20618 (whole entry, looked up): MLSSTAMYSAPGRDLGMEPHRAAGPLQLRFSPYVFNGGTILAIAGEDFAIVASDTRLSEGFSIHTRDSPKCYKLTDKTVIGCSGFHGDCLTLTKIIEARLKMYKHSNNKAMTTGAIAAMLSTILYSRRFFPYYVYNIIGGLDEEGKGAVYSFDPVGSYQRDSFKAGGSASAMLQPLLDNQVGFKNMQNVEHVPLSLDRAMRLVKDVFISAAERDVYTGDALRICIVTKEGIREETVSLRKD
KCNA2/KCNA1: KCNA2/KCNA1 (Homo sapiens, UniProt P16389+Q09470)
Sequence of UniProt P16389 (whole entry, looked up): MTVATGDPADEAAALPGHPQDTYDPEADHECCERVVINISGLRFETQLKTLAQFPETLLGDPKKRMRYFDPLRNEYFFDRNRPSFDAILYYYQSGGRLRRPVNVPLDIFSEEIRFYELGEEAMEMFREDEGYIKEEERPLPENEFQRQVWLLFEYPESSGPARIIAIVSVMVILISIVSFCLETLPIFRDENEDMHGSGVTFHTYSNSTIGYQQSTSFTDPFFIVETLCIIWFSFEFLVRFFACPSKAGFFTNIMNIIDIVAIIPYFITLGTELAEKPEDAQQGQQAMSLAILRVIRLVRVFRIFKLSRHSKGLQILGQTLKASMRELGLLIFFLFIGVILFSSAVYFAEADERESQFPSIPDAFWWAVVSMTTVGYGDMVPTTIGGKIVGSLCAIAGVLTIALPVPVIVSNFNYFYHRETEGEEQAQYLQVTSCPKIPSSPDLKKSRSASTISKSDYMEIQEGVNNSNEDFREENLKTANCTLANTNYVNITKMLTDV
Sequence of UniProt Q09470 (whole entry, looked up): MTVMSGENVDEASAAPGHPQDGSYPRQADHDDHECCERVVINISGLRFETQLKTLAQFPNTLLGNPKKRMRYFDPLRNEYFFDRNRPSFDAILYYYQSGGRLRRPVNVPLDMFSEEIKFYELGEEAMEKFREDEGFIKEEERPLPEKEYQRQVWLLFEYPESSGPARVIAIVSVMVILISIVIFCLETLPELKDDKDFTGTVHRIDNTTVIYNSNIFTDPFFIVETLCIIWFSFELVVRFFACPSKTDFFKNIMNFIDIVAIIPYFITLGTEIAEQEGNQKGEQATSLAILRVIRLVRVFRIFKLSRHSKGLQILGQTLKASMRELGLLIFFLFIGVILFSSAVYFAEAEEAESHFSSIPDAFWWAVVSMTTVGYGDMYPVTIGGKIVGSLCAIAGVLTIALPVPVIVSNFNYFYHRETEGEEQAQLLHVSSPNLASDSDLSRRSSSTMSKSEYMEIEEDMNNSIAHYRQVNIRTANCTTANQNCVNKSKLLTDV
Faah: Fatty-acid amide hydrolase 1 (Faah, Rattus norvegicus, UniProt P97612)
Sequence of UniProt P97612 (whole entry, looked up): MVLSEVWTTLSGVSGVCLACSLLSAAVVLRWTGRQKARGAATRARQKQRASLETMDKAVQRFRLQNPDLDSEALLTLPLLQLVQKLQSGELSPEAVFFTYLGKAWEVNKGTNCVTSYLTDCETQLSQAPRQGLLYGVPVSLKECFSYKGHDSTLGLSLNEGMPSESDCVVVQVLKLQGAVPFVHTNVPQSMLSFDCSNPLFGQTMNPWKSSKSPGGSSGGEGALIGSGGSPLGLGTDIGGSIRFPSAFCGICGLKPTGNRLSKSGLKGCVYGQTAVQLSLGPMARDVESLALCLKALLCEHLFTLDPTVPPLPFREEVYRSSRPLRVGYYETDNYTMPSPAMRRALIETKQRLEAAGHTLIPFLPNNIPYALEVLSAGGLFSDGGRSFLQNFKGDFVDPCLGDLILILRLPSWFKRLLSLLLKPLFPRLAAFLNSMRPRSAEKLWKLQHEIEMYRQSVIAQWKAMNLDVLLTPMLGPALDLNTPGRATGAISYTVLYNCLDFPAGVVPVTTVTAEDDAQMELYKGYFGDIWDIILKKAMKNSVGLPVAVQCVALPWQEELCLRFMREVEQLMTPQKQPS
Sequence of UniProt Q13936 (whole entry, looked up): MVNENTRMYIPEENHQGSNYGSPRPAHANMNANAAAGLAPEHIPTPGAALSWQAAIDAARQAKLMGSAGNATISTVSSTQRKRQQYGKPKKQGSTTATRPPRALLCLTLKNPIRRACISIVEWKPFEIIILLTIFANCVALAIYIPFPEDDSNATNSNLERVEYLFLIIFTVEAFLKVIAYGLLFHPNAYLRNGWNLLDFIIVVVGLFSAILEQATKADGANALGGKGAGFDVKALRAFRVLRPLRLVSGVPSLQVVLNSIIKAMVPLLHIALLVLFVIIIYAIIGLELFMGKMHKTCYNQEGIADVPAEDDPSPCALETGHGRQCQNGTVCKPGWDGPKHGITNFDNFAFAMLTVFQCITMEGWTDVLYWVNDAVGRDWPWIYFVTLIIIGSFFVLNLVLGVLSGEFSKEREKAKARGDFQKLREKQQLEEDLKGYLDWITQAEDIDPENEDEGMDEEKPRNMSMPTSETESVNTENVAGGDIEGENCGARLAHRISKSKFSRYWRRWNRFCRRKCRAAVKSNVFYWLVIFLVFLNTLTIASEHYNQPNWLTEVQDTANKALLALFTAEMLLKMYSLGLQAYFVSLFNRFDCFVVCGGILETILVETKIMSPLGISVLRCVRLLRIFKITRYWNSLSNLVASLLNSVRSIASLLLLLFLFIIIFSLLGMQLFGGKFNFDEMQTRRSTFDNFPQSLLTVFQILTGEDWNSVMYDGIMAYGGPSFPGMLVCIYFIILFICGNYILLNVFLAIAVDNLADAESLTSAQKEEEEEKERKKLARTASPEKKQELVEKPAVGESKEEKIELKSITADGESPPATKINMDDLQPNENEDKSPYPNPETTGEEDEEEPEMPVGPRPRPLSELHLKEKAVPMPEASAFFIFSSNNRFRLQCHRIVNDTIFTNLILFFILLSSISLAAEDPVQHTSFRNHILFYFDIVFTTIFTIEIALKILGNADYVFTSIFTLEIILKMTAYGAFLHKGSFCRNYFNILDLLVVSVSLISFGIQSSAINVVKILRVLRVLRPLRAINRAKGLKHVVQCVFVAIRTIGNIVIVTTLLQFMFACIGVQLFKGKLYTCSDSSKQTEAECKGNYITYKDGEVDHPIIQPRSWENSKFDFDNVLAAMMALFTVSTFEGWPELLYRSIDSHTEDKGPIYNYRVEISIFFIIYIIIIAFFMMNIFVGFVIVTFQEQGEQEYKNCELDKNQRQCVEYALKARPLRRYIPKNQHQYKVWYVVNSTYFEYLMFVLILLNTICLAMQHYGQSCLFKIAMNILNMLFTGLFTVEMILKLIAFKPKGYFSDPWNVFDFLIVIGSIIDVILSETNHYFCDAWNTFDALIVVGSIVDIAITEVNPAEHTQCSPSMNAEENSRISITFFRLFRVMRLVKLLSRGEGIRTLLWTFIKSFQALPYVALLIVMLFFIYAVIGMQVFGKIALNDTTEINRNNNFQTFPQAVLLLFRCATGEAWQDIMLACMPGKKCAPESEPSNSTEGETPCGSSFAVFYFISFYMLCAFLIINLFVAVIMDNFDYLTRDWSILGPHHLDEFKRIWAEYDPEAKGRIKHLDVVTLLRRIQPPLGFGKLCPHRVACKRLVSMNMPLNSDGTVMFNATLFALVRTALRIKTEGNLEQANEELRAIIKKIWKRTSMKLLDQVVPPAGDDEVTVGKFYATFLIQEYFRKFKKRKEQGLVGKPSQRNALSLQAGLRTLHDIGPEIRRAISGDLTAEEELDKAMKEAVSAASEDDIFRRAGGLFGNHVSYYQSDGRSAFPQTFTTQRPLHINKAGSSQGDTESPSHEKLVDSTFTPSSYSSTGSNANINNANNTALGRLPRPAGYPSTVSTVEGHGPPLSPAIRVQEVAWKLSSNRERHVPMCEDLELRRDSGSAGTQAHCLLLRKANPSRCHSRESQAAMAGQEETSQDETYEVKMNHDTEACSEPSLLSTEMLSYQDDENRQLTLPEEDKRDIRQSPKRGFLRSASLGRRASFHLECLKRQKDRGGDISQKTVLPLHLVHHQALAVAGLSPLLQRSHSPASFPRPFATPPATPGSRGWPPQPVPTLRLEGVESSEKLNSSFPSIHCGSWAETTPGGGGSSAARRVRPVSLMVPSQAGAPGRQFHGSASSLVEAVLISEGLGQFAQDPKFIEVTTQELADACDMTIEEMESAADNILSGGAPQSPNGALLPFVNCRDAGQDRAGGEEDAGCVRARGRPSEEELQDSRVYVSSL
Sequence of UniProt Q01727 (whole entry, looked up): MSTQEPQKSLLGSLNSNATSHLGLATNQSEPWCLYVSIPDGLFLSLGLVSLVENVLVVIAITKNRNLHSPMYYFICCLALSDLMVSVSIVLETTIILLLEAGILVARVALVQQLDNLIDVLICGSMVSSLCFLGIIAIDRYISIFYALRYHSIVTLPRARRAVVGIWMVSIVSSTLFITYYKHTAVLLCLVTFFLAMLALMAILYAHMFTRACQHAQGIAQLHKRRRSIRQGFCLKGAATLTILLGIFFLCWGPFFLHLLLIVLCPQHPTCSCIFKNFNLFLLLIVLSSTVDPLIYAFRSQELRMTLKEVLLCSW

SMILES	target	assay	system	conditions	how to read	IC50
CC(C)C[C@@H](CN[C@@H](Cc1ccc(Cl)cc1)C(N)=O)NC(=O)[C@H](Cc1c[nH]cn1)NC(=O)CNC(=O)[C@@H](NC(=O)[C@H](C)NC(=O)[C@H](Cc1c[nH]c2ccccc12)NC(=O)[C@H](CCC(N)=O)NC(=O)[C@H](N)Cc1ccccc1)C(C)C	GRPR	binding, radioligand displacement	Balb 3T3 or HuTu-80			0.2 to 1.4 nM
Cc1cccc(C)c1NC(=O)CC(C)NCc1ccccc1 (centres unmarked)	Sodium channel protein type 4 subunit alpha (SCN4A, Homo sapiens, UniProt P35499, F1586C)	phasic block of sodium current, whole-cell patch clamp	HEK293	10 Hz stimulation		62000 ± 4000 nM
Cc1ccc(CNC(=O)[C@@H](NC(=O)[C@H](CCc2ccccc2)NC(=O)[C@H](CCc2ccccc2)NCc2cnccn2)C(C)C)cc1	Proteasome component C5/PSMB5	β5 activity, inhibitor		with: Suc-LLVY-AMC, PA28α-activated		2090 nM
CCOc1cncc(-c2ccc(NC(=O)C(CC)c3ccnc(NS(=O)(=O)C4CC4)n3)nc2)n1 (centres unmarked)	CTP synthase 2 (CTPS2, Homo sapiens, UniProt Q9NRF8)	enzyme activity, RapidFire mass spectrometry	human	geometric mean		1870 nM
CN(Cc1nc2ccccc2s1)C(=O)c1cccc(S(=O)(=O)N2CCc3ccccc3C2)c1	KCNA2/KCNA1	potassium current, inhibitor, automated patch clamp	CHO-K1, concatemer expressing			2710 nM
C[C@@H](NC(=O)CCCCCNC(=O)c1ccc(-c2ccnc(N)n2)s1)C(=O)NCCCCCC(=O)N[C@H](CCCNC(=N)N)C(=O)N[C@H](CCCNC(=N)N)C(=O)N[C@H](CCCNC(=N)N)C(=O)N[C@H](CCCNC(=N)N)C(=O)N[C@H](CCCNC(=N)N)C(=O)N[C@H](CCCNC(=N)N)C(=O)N[C@H](CCCCN)C(N)=O	cGMP-dependent protein kinase 1, isoform alpha (PRKG1, Bos taurus, UniProt P00516)	inhibitor, fluorescence intensity displacement		with: ARC-1059 probe and cGMP 40 µM		64.6 nM
O=C(OC(C(F)(F)F)C(F)(F)F)N1CCC(CCn2ncc3ccccc32)CC1	Faah	enzyme activity, inhibitor				4100 nM
CN1C[C@@H](c2c[nH]c3cc(Br)ccc23)N(C)C[C@@H]1c1c[nH]c2ccccc12	Serine/threonine-protein phosphatase PP1-alpha catalytic subunit (PPP1CA, Oryctolagus cuniculus, UniProt P62139)	enzyme activity, inhibitor, fluorescence				~10000 nM
COC(=O)C(CS)N1C(=O)c2cccc3c(N(C)C)ccc(c23)C1=O (centres unmarked)	Metallo-beta-lactamase VIM-2 (VIM-2, Escherichia coli, UniProt Q5U7L7)	enzyme activity, inhibitor		pH 7		410 nM
O=C(O)c1ccc2nc(-c3ccc(OCCCCOc4ccc(-c5nc6ccc(C(=O)O)cc6[nH]5)cc4)cc3)[nH]c2c1	Dihydrofolate reductase type 2 (Escherichia coli, UniProt P00383)	enzyme activity, inhibitor		pH 7		60000 ± 10000 nM
CCC1(CC)C(=O)N(c2cccc(CN3CCN(c4cc(C)nc5ccc(Br)cc45)CC3)c2)C1=O	Dipeptidyl peptidase 2 (Homo sapiens, UniProt Q9UHL4)	cell-free assay, inhibitor				> 10000 nM
O=C(NC1CCC1)c1ccc2nc(-c3cccc(NS(=O)(=O)NCCc4c[nH]cn4)c3)cn2c1	Protein ENL (MLLT1, Homo sapiens, UniProt Q03111)					7 nM
CC(C)C[C@H](NC(=O)OCc1ccccc1)C(=O)N[C@@H](C[C@H]1CCNC1=O)C(=O)C(=O)NC1CC1	Genome polyprotein, 3C protease (rhinovirus B14, UniProt P03303)	3C protease activity, inhibitor, FRET				180 ± 30 nM
O=C(OC(C(F)(F)F)C(F)(F)F)N1CCC(CCn2cc3ccccc3n2)CC1	Faah	enzyme activity, inhibitor				> 10000 nM
CCCCCCCCCCCCCC(=S)NCCCC[C@H](NC(=O)[C@@H]1CCCN1)C(=O)N[C@@H](CCCCN)C(=O)N[C@H](C(=O)NCC(=O)O)[C@@H](C)O	NAD-dependent protein deacetylase sirtuin-1 (SIRT1, Homo sapiens, UniProt Q96EB6)					10700 nM
CCNC(=O)[C@H](CC(C)C)NC(=O)[C@H](Cc1c[nH]cn1)NC(=O)CNC(=O)[C@@H](NC(=O)[C@H](C)NC(=O)[C@H](Cc1c[nH]c2ccccc12)NC(=O)[C@H](CCC(N)=O)NC(=O)[C@H](N)Cc1ccccc1)C(C)C	GRPR	ligand displacement, radioligand				16.4 nM
CC(=O)Nc1ncc(CN2CC[C@H](Oc3cccc(F)n3)C[C@@H]2C)s1	Protein O-GlcNAcase (OGA, Homo sapiens, UniProt O60502)	enzyme activity, inhibitor				1.9 nM
Cn1cc(-c2cc(N3CCCS3(=O)=O)ccc2N[C@H]2CC[C@H](C)CC2)c2cc[nH]c2c1=O	Bromodomain-containing protein 4, BD1 (BRD4, Homo sapiens, UniProt O60885)	cell-free assay, TR-FRET				0.52 nM
N=C(NCCCC(N)C(N)=O)NCCSCC1OC(n2cnc3c(N)ncnc32)C(O)C1O (centres unmarked)	Histone-lysine N-methyltransferase SETD7 (SETD7, Homo sapiens, UniProt Q8WTS6)	enzyme activity, inhibitor, fluorescence				> 100000 nM
[2H]c1c(NS(C)(=O)=O)c([2H])c2c(C(=O)c3ccc(OCCCN(CCCC)CCCC)cc3)c(CCCC)oc2c1[2H]	Voltage-dependent L-type calcium channel subunit alpha-1C, cardiac isoform (CACNA1C, Homo sapiens, UniProt Q13936)	peak calcium current, blocker, whole-cell patch clamp	HEK293FT transfected			1150 nM
O=C(NCCCN1CCC(Cc2ccccc2)CC1)c1ccc2cc(Br)ccc2c1	Sodium-dependent dopamine transporter (SLC6A3, Homo sapiens, UniProt Q01959)	transporter uptake, inhibitor, radiometric				> 10000 nM

SMILES	target	assay	system	conditions	how to read	IC50
NC(=O)Nc1nc2cc(Br)ccc2[nH]c1=O	Chemotaxis protein CheA (Escherichia coli, UniProt P07363)	kinase activity, ATP-competitive		with: CheW		> 100000 nM
CCCC[C@H](NC(=O)CNC(=O)CNC(=O)CN1CCN(CC(=O)O)CCN(CC(=O)O)CC1)C(=O)N[C@H]1CC(=O)NCCCC[C@@H](C(N)=O)NC(=O)[C@H](Cc2c[nH]c3ccccc23)NC(=O)[C@H](CCCNC(=N)N)NC(=O)[C@@H](Cc2ccccc2)NC(=O)[C@H](Cc2c[nH]cn2)NC1=O	Melanocyte-stimulating hormone receptor (Mc1r, Mus musculus, UniProt Q01727)	ligand displacement, radioligand				1.6 nM
O=c1c2ccccc2sn1-c1ccccc1	Histone deacetylase 11 (HDAC11, Homo sapiens, UniProt Q96DB2)	enzyme activity, inhibitor				> 10000 nM
C[C@H](OP(=O)(O)O)[C@H]1NC(=O)[C@H](CCCNC(=N)N)NC(=O)[C@@H](CCCNC(=N)N)NC(=O)[C@@H](CCCNC(=N)N)NC(=O)[C@H](CCCNC(=N)N)NC(=O)[C@H](Cc2ccc3ccccc3c2)NC(=O)[C@@H]2CCCCN2C1=O	Peptidyl-prolyl cis-trans isomerase NIMA-interacting 1 (PIN1, Homo sapiens, UniProt Q13526)	fluorescence anisotropy competition		with: FITC-labelled probe		680 ± 72 nM
Oc1cc(O)c2c(c1)OC(c1ccc(O)c(O)c1)C(OC1(c3ccc(O)c(O)c3)Oc3cc(O)cc(O)c3C(O)C1O)C2 (centres unmarked)	G-protein coupled receptor 35 (GPR35, Homo sapiens, UniProt Q9HC97)	DMR desensitization	HT-29	with Tween-80 0.025%, with: zaprinast		65600 nM
CC[C@H](C)[C@H](NC(=O)[C@H](Cc1ccccc1)NC(=O)[C@H](CC(=O)O)NC(=O)[C@H](CCCNC(=N)N)NC(=O)[C@H](C)NC(=O)[C@H](C)NC(=O)[C@H](CC(C)C)NC(=O)[C@H](CC(N)=O)NC(=O)[C@H](CC(=O)O)NC(=O)[C@H](CC(C)C)NC(=O)[C@@H](NC(=O)[C@@H](NC(=O)[C@H](CC(N)=O)NC(=O)[C@H](CCSC)NC(=O)[C@H](CCC(=O)O)NC(=O)[C@H](CC(=O)O)NC(=O)[C@H](CO)NC(=O)[C@H](Cc1ccccc1)NC(=O)[C@H](CO)NC(=O)[C@H]1CCC[C@@H]1NC(=O)[C@H](CC(=O)O)NC(=O)[C@H](C)NC(=O)[C@@H](N)Cc1c[nH]cn1)[C@@H](C)O)[C@@H](C)CC)C(=O)N[C@@H](CC(N)=O)C(=O)N[C@@H](Cc1c[nH]c2ccccc12)C(=O)N[C@@H](CC(C)C)C(=O)N[C@H](C(=O)N[C@@H](CCC(N)=O)C(=O)N[C@H](C(=O)N[C@@H](CCCCN)C(=O)N[C@H](C(=O)N[C@H](C(=O)N[C@@H](CC(=O)O)C(N)=O)[C@@H](C)O)[C@@H](C)CC)[C@@H](C)O)[C@@H](C)CC	Glucagon-like peptide 2 receptor (GLP2R, Homo sapiens, UniProt O95838)					240 nM
Cc1cc2c(NC(=O)N[C@@H]3CC(C)(C)Oc4c(OC(F)(F)F)cccc43)cccc2cn1	Transient receptor potential cation channel subfamily V member 1 (TRPV1, Homo sapiens, UniProt Q8NER1)	calcium signal, antagonist, fluorescence				65.7 nM
O=C(O)C(=O)N[C@H](CS)C(=O)O	Lysine-specific demethylase 4E (KDM4E, Homo sapiens, UniProt B2RXH2)	enzyme activity, inhibitor				73000 nM
COC(=O)[C@H](CC(C)C)NC(=O)[C@@H]1CCCN1C(=O)[C@@H](NC(=O)[C@H](CCC(=O)C=[N+]=[N-])NC(=O)OCc1ccccc1)C(C)C	Protein-glutamine gamma-glutamyltransferase K (Homo sapiens, UniProt P22735)	inhibitor			baseline: TG2	increased
N#Cc1ccc(-c2c[nH]c(CNC(=O)Nc3ncc(Sc4ccccn4)s3)n2)cc1	Enoyl-(Acyl-carrier-protein) reductase (Streptococcus pneumoniae, UniProt Q9FBC5)	enzyme activity, inhibitor				85 nM
O=C(c1cccc(S(=O)(=O)N2CCc3ccccc3C2)c1)N1CCO[C@H](c2ccc(F)cc2)C1	Voltage-dependent L-type calcium channel subunit alpha-1C (CACNA1C, Homo sapiens, UniProt Q13936)	calcium signal, fluorescence				4740 nM
O=C(NN=Cc1c(O)ccc2ccccc12)c1cccc2cc[nH]c12	Phosphatidylinositol 4-kinase type 2-alpha (PI4K2A, Homo sapiens, UniProt Q9BTU6)	enzyme activity, inhibitor				2500 nM
Cc1ccc(CNC(=O)[C@H](CCc2ccccc2)NC(=O)[C@H](CC(=O)NCC(C)(C)C)NC(=O)CCc2cccc(F)c2)cc1	Proteasome component C5/PSMB5	inhibitor				4.6 nM
O=C(c1cccc(S(=O)(=O)N2CCc3ccccc3C2)c1)N1CCC(OCc2ccccc2)CC1	KCNA2/KCNA1	potassium current, inhibitor, automated patch clamp	CHO-K1, concatemer expressing			580 nM
COc1cncc(-c2cc(F)cc(CNC(=O)c3cc(N4CC[C@@](C#N)(C5CC5)C4=O)cc(C)n3)c2)c1	Proline--tRNA ligase (Plasmodium falciparum, UniProt Q8I5R7)	enzyme activity, inhibitor, absorbance				101 nM
NC(=O)N/N=C/c1ccccn1	Superoxide dismutase [Cu-Zn] (SOD1, Homo sapiens, UniProt P00441)	enzyme activity, inhibitor	HeLa	24 h		2920 nM
CSCC[C@H](NC(=O)[C@H](Cc1ccccc1)NC(=O)[C@H](CO)NC(=O)CNC(=O)[C@@H](NC(=O)[C@H](C)NC(=O)[C@H](Cc1c[nH]c2ccccc12)NC(=O)[C@H](CC(C)C)NC(=O)[C@@H]1CCC(=O)N1)C(C)C)C(N)=O	GRPR	binding	HuTu80 and hGRPR-Balb 3T3			> 1000 nM
CC(C)=CCN=C(N)NCCC[C@@H](NC(=O)CCCc1ccc(O)cc1)C(=O)N[C@@H](Cc1ccccc1)C(O)CC(=O)N[C@@H](Cc1ccc(O)cc1)C(=O)O (stereo in doubt)	Disintegrin and metalloproteinase domain-containing protein 9 (Homo sapiens, UniProt Q13443)	enzyme activity, inhibitor				> 100000 nM
Cc1nc(Nc2ncc(C(=O)Nc3c(C)cccc3Cl)s2)cc(N2CCN(CCOC(=O)[C@@H](N)CCC(=O)O)CC2)n1	Tyrosine-protein kinase CSK (CSK, Homo sapiens, UniProt P41240)	enzyme activity, inhibitor				20 nM
CNC(=O)C1CCN(c2cc(C)c(F)cc2NC(=O)c2ccc(-c3c(C)ccc4[nH]ncc34)c(C)c2)CC1	Ephrin type-A receptor 5 (EPHA5, Homo sapiens, UniProt P54756)	target engagement in cells, BRET				38 nM

Repeated from above:
SMILES	target	assay	system	conditions	how to read	IC50
CCCCCCCCCCCCCC(=S)NCCCC[C@H](NC(=O)[C@@H]1CCCN1)C(=O)N[C@@H](CCCCN)C(=O)N[C@H](C(=O)NCC(=O)O)[C@@H](C)O	NAD-dependent protein deacetylase sirtuin-1 (SIRT1, Homo sapiens, UniProt Q96EB6)					10700 nM
CNC(=O)C1CCN(c2cc(C)c(F)cc2NC(=O)c2ccc(-c3c(C)ccc4[nH]ncc34)c(C)c2)CC1	Ephrin type-A receptor 5 (EPHA5, Homo sapiens, UniProt P54756)	target engagement in cells, BRET				38 nM
COC(=O)[C@H](CC(C)C)NC(=O)[C@@H]1CCCN1C(=O)[C@@H](NC(=O)[C@H](CCC(=O)C=[N+]=[N-])NC(=O)OCc1ccccc1)C(C)C	Protein-glutamine gamma-glutamyltransferase K (Homo sapiens, UniProt P22735)	inhibitor			baseline: TG2	increased
CC(C)C[C@H](NC(=O)OCc1ccccc1)C(=O)N[C@@H](C[C@H]1CCNC1=O)C(=O)C(=O)NC1CC1	Genome polyprotein, 3C protease (rhinovirus B14, UniProt P03303)	3C protease activity, inhibitor, FRET				180 ± 30 nM
CCNC(=O)[C@H](CC(C)C)NC(=O)[C@H](Cc1c[nH]cn1)NC(=O)CNC(=O)[C@@H](NC(=O)[C@H](C)NC(=O)[C@H](Cc1c[nH]c2ccccc12)NC(=O)[C@H](CCC(N)=O)NC(=O)[C@H](N)Cc1ccccc1)C(C)C	GRPR	ligand displacement, radioligand				16.4 nM
N#Cc1ccc(-c2c[nH]c(CNC(=O)Nc3ncc(Sc4ccccn4)s3)n2)cc1	Enoyl-(Acyl-carrier-protein) reductase (Streptococcus pneumoniae, UniProt Q9FBC5)	enzyme activity, inhibitor				85 nM
